# Measurements collected from several papers.
# ± marks the error that the study gave.
# Cell line: HepG2
SMILES,observed,technique,sample,time,notes,IC50 [µM]
Cc1cc(Oc2nc(N3CC[C@@H](c4ccncc4)C3)ncc2F)[nH]n1,cell proliferation,,liver cancer,,,42.7
Cc1ccc(C(C)C)cc1.Cc1ccc(C(C)C)cc1.Cc1ccc(C(C)C)cc1.Cc1ccc(C(C)C)cc1.O=S(=O)(O)C(F)(F)F.O=S(=O)(O)C(F)(F)F.O=S(=O)(O)C(F)(F)F.O=S(=O)(O)C(F)(F)F.c1ccc2c3c4ccccc4c(c2c1)-c1cn(nn1)-c1cc[n+](cc1)[Ru-]1[O]c2ccc4c5c(ccc(c25)=[O+]1)=[O+][Ru-]([O]4)[n+]1ccc(cc1)-n1cc(nn1)-c1c2ccccc2c(c2ccccc12)-c1cn(nn1)-c1cc[n+](cc1)[Ru-]1[O]c2ccc4c5c(ccc(c25)=[O+]1)=[O+][Ru-]([O]4)[n+]1ccc(cc1)-n1cc-3nn1,cell growth,MTT,,24 h,after 24 h preincubation in medium at 37 °C,4.6 ± 0.34
COc1ccc(CN2CCN(Cc3ccccc3)CC2)c(O)c1,cytotoxicity,MTT,,,,> 50
Cc1ccc(C2=CC(C)(C)Oc3ccc(-c4ccc(-c5ccc(C(=O)O)cc5)[nH]4)cc32)cc1,,,,,,27.5
Nc1c(C(=O)N2CCCC2)sc2nc(-c3ccccc3)ccc12,cell growth or viability,,,72 h,,> 100
CCC1(c2ccc(NC(=O)CCC(=O)OC3OC4OC5(C)CCC6C(C)CCC(C3C)C46OO5)cc2)CCC(=O)NC1=O (mixture of isomers),cell growth or viability,CCK-8,,,,> 50
O=C1C=CC(=O)c2c(O)ccc(O)c21,cell growth or viability,MTT,,,,1.37
CC1CCC2C(C)C(OC(=O)CCC(=O)N3CCN(CC(=O)Nc4ccc([N+](=O)[O-])c(C(F)(F)F)c4)CC3)OC3OC4(C)CCC1C32OO4 (centres unmarked),cell growth or viability,CCK-8,,,,0.86
O=C1C=CC(=O)c2c(O)cccc21,cell growth or viability,MTT,,,,32.4
CC1CCC2C(C)C(OC(=O)CCC(=O)OC3C(C)OC(n4cc(F)c(=O)[nH]c4=O)C3OC(=O)CCC(=O)OC3OC4OC5(C)CCC6C(C)CCC(C3C)C46OO5)OC3OC4(C)CCC1C32OO4 (centres unmarked),cell growth or viability,CCK-8,,,,> 50
Cc1ccc2c(Br)cc(Br)c([O-])c2n1.Cc1ccc2c(Br)cc(Br)c([O-])c2n1.[Co+2].c1cnc2c(c1)c1nccnc1c1cccnc12,cell growth or viability,MTT,,48 h,,7.03

# For quick reference, copied from above:
SMILES,observed,technique,sample,time,notes,IC50 [µM]
CC1CCC2C(C)C(OC(=O)CCC(=O)N3CCN(CC(=O)Nc4ccc([N+](=O)[O-])c(C(F)(F)F)c4)CC3)OC3OC4(C)CCC1C32OO4 (centres unmarked),cell growth or viability,CCK-8,,,,0.86
